# Experimental data from different studies.
# Several values in a cell are separate wells, animals, samples, runs or records. Numbers after ± are the reported error.
# B1: IL18 37-193 C74S/C104S/I107C/C112S/N123C/C163S (Homo sapiens, UniProt Q14116); chain YFGKLESKLSVIRNLNDQVLFIDQGNRPLFEDMTDSDSRDNAPRTIFIISMYKDSQPRGMAVTISVKSEKCSTLSSENKIISFKEMCPPDNIKDTKSDIIFFQRSVPGHDNKMQFESSSYEGYFLASEKERDLFKLILKKEDELGDRSIMFTVQNED
# B2: RSPO4 32-137 Q65R (Homo sapiens, UniProt Q2I0M5); chain GGNCTGCIICSEENGCSTCQQRLFLFIRREGIRRYGKCLHDCPPGYFGIRGQEVNRCKKCGATCESCFSQDFCIRCKRQFYLYKGKCLPTCPPGTLAHQNTRECQGGGGGSGGGGSGGGGS
# B3: SRS2 1107-1174 F1153A (Saccharomyces cerevisiae, UniProt P12954); N-terminal cysteine BODIPY-FL; chain CHNPDDTTVDNRPIISNAKFLADAAMKKTQKFSKKVKNEPASSQMDIASQLSRAKKKSKLNNGEIIVID
# B4: ERRFI1 330-399 (human, UniProt Q9UJM3); N-terminal FITC; sequence looked up; chain SRTPSPKSLPSYLNGVMPPTQSFAPDPKYVSSKALQRQNSEGSASKVPCILPIIENGKKVSSTHYYLLPE
# B5: EFNB1 28-237 (Homo sapiens, UniProt P98172); sequence looked up; chain LAKNLEPVSWSSLNPKFLSGKGLVIYPKIGDKLDIICPRAEAGRPYEYYKLYLVRPEQAAACSTVLDPNVLVTCNRPEQEIRFTIKFQEFSPNYMGLEFKKHHDYYITSTSNGSLEGLENREGGVCRTRTMKIIMKVGQDPNAVTPEQLTTSRPSKEADNTVKMATQAPGSRGSLGDSDGKHETVNQEEKSGPGASGGSSGDPDGFFNSK
# B6: spdl-1 C-terminal 362-479 (Caenorhabditis elegans, UniProt Q17695); sequence looked up; chain PVVNKDFEHPLLAAPLKTLNNGRPSFFIKPKNVEPMPQLGHSLSSIAVTPQKPAAKFTTRSSIKDDTSEWAERRMKAQAEKKLATPTPRYNYIKLSEPVPKFKPAVLQMPSTSETKEN
# B7: FRS2 PTB domain (Homo sapiens, UniProt Q8WU20); chain VPDNHRNKFKVINVDDDGNELGSGIMELTDTELILYTRKRDSVKWHYLCLRRYGYDSNLFSFESGRRCQTGQGIFAFKCARAEELFNMLQEIMQNNSINVVEE
# B8: ATG9 1-255 (Saccharomyces cerevisiae, UniProt Q12142); sequence looked up; chain MERDEYQLPNSHGKNTFLSRIFGLQSDEVNPSLNSQEMSNFPLPDIERGSSLLHSTNDSREDVDENDLRVPESDQGTSTEEEDEVDEEQVQAYAPQISDGLDGDHQLNSVTSKENVLETEKSNLERLVEGSTDDSVPKVGQLSSEEEEDNEFINNDGFDDDTPLFQKSKIHEFSSKKSNTIEDGKRPLFFRHILQNNRPQRDTQKLFTSSNAIHHDKDKSANNGPRNINGNQKHGTKYFGSATQPRFTGSPLNNT
# B9: UBQLN2 450-624 (Homo sapiens, UniProt Q9UHD9); chain RAMQALMQIQQGLQTLATEAPGLIPSFTPGVGVGVLGTAIGPVGPVTPIGPIGPIVPFTPIGPIGPIGPTGPAAPPGSTGSGGPTGPTVSSAAPSETTSPTSESGPNQQFIQQMVQALAGANAPQLPNPEVRFQQQLEQLNAMGFLNREANLQALIATGGDINAAIERLLGSQPS
Substance,target or system,assay,system,setting,scale,endpoint,value
Peginesatide,UT7/EPO,"RT-qPCR, item: EGR4",,"concentration not given, 90 min, normalized to HPRT1",relative to: vehicle,mRNA level,6.8 fold
"KLLMIIHDRREFAKFEKEKMNAKWDTGENPIYKSPVTTVVNPKYEGK (ITGB1 752-798 A786P (Homo sapiens, UniProt P05556-1); sequence looked up)","Tln2 312-408 (Mus musculus, UniProt Q71LX4)",NMR titration,,,,Kd,127 µM
GRIN2A fragment (sequence not shown),SNX27 fragment (Rattus norvegicus),ITC,,,,Kd,46 µM
HSP20 (Thermococcus kodakaraensis),"pol (Pyrococcus furiosus, UniProt P61875)",NMR titration,,,,Kd,36.7 µM and 18.6 µM
EGLN1 fragment,"HIF1A NODD peptide 394-411, C-terminal amide (Homo sapiens)",BLI,,,,Kd,3.2 ± 0.3 µM
B1,"IL18BP (Homo sapiens, UniProt O95998)",SPR,,,,Kd,7.2e-06 µM
B2 (RSPO4 32-137 Q65R),"LGR5 (Homo sapiens, UniProt O75473)",whole-cell binding saturation,"Fc fusion, HEK293T",,,Kd,0.0007 µM
"PRTARHAPAVRKFSPDLKLLKDVKISVSFTE (DGCR8(96-126), SUMO-tagged)","Enhancer of rudimentary homolog (Homo sapiens, UniProt P84090, M35A)","binding, isothermal titration calorimetry",peptide,"293 K, added: DGCR8 peptide, SUMO-tagged",,Kd,21.3 ± 4.32 µM
B3 (SRS2 1107-1174 F1153A),"POL30 1-258 K127G (Saccharomyces cerevisiae, UniProt P15873)",fluorescence polarisation,,apparent,,Kd,1.48 µM
"ALB (Homo sapiens, UniProt P02768)","ZNF101 (Homo sapiens, UniProt Q8IZC7)",cross-linking MS,,added: DSSO,,cross-linked residues,K219 to K290
HTN1 fragment alanine substitutions at 20-24,"TMEM97 (Homo sapiens, UniProt Q5BJF2)",SPR,,,,Kd,22.7 µM
CTOP,,RP-HPLC,HALO RP-amide column,"25 µM, formic acid/methanol, 25 min gradient",,retention time,14.5 min
Notch ankyrin domain K183A/R193A/E194A/R107A (Drosophila),"dx (Drosophila melanogaster, UniProt Q23985)",AUC,,,,Kd,5.13 µM
PF4 tetramer,GP6 monomer (UniProt Q9HCN6),SPR,,,,Kd,1.3 ± 0.14 µM
ARTKQTARKS (histone H3 1-10; K4me3),"ING1 163-234 Y180A (Arabidopsis thaliana, UniProt Q9LIQ6)",ITC,peptide,,,Kd,6.85 ± 0.61 µM
"TERLVLRLNRKKKKVSWKDGTVDNE (INH3 27-51 (Arabidopsis thaliana, UniProt Q8S8F7))","PUX4 (Arabidopsis thaliana, UniProt Q8RWU7)",ITC,peptide,,,Kd,70.4 ± 14.9 µM
YLPTITGVGHLWHPLC (engineered peptide),VPS35/VPS26A/VPS29 retromer complex (Homo sapiens),SPR,peptide,,,Kd,0.0052 µM
B4 (ERRFI1 330-399),"EGFR 696-1022 (Homo sapiens, UniProt P00533)",fluorescence polarization,,apparent,,Kd,5.2 µM
B5 (EFNB1 28-237),"EPHA2 residues 25-968, auto-phosphorylated (Homo sapiens, UniProt P29317)",BLI,Fc fusion,apparent,,Kd,8.2 µM
"FGA (Homo sapiens, UniProt P02671)","TTC27 (Homo sapiens, UniProt Q6P3X3)",cross-linking MS,,added: DSSO,,cross-linked residues,K100 to K484
B6 (spdl-1 C-terminal 362-479),"rod-1 2-418 (Caenorhabditis elegans, UniProt Q20849)",MST,,,,Kd,15.2 ± 3.1 µM
PARRSEELVAEAHNLCTLLENAIQDTVREQDQSFTALDWSWLQTE (IKBKB 701-745 K703R/K704R (UniProt O14920); N-terminal FITC; sequence looked up),NEMO 44-113 (Homo sapiens),fluorescence polarisation,peptide,,,Kd,7.28 µM
B7 (FRS2 PTB domain),"FGFR1 (Homo sapiens, UniProt P11362)",ITC,,,,Kd,9.9 µM
GCVRLHESCLGQQVPCCDPAATCYCVGRGDDNLKCYCR (designed peptide AgRP scaffold),ITGA2B/ITGB3 K562 cells,flow cytometry,"designed binder, U87MG",,,Kd,> 0.1 µM
B8 (ATG9 1-255),"Atg23 full-length, dimer (yeast, UniProt Q06671)",ITC,,"pH 8, 20 °C, NaCl 150 mM",,Kd,5.6 µM
colistin,Pseudomonas aeruginosa,,clinical isolate RKI 589/12,,,MIC,≤ 1 µg/mL
BzATP,"P2X purinoceptor 7 (P2rx7, Rattus norvegicus, UniProt Q64663, R125A)","ion current, agonist, two-electrode voltage clamp",Xenopus oocytes,11.11 µM,,normalized current,0.742 and 0.693 and 0.707
human ME2 Q51H,,"enzyme activity, activator, NADH absorbance",recombinant enzyme,"range over 0 to 5 mM, pH 7.4",relative to: wild type,activation fold,0.8
"APGVPRIEEEKSEEE (CRYAB residues 131-145 (Homo sapiens, UniProt P16220))",KIX CBP L628A (Mus musculus),fluorescence anisotropy,peptide,,,Kd,0.7 µM
B9 (UBQLN2 450-624),ubiquitin (UniProt P0CG48),NMR titration,,,,Kd,3.38 µM
11-deoxycorticosterone,CYP11B2 (human),"substrate binding, stopped-flow global kinetic fitting",purified enzyme,"model, 4-state, linear IF, added: 40-fold excess adrenodoxin",,Kd,1.82 µM
"DPSDYAEPMDAVVKPRNEEENIYSVPHDS (ARHGAP35 residues 1083-1111; pY1087/pY1105, N-acetyl, C-amide)","RASA1 174-444 C236S/C261S/C372S/C402S (Homo sapiens, UniProt P20936)",ITC,peptide,,,Kd,0.00359 µM and 0.00649 µM and 0.00504 µM
